Assay results of several laboratories.
Numbers after ± are the reported error.
Cell line: human PBMC

| SMILES | assay | setting | measurement | result |
| --- | --- | --- | --- | --- |
| C=CC(=O)N1CCC[C@@H]1Cn1c(NC(=O)c2ccc(C(F)F)s2)nc2cc(CN[C@@H](C)C(C)(C)C)ccc21 | IL-2 production, AlphaLISA | 18 h, together with: anti-CD3/CD28 | IC50 | 0.0087 ± 0.0021 µM |
| O=C(N=P12CN3CN(CN(C3)C1)C2)c1ccccc1Br | cytotoxicity, MTT | 24 h, 1% DMSO | IC50 | > 500 µM |
| C=CCN(/C=C1/C(=O)O[C@H](COC)[C@@]2(C)C1=C(O)C(=O)C1=C2[C@H](OC(C)=O)C[C@]2(C)C(=O)CC[C@@H]12)CC=C | T cell expansion, resazurin | 7 days, together with: concanavalin A 2 µg/mL | EC50 | 1.2 µM |
| C=C(Br)C(=O)Nc1ccc(/C=C/C(=O)Nc2cc(OC)c(OC)c(OC)c2)cc1 | cell growth or viability, MTT | 72 h | IC50 | 3.5 to 4 µM |
| N/C(=N\O)c1ccc(-c2cc(CNc3cccc4cccnc34)on2)cc1 | cell growth or viability, MTS | – | IC50 | > 100 µM |
| CCc1cc(Nc2nccc(-c3c(-c4ccc(OC)c(C(=O)Nc5c(F)cccc5F)c4)nc4ccccn34)n2)c(OC)cc1N1CCC(N2CCN(S(C)(=O)=O)CC2)CC1 | T cell expansion, resazurin | 7 days, together with: concanavalin A 2 µg/mL | EC50 | 13.9 µM |
| Cc1[nH]c2ccccc2c1CCNCc1ccc(/C=C/C(=O)NO)cc1 | cell viability, CellTiter-Glo | 72 h | IC50 | < 0.02 µM |
| Cc1ccc(NC(=O)c2ccc3c(c2)CC[C@@H]3N2CCN(C)CC2)cc1C#Cc1cnc2ccc(Cl)nn12 | cell growth | 72 h | IC50 | > 1 µM |
| N#CC(=C(/N)Sc1ccccc1N)/C(C#N)=C(/N)Sc1ccccc1N | T cell expansion, resazurin | 7 days, together with: concanavalin A 2 µg/mL | EC50 | 1.92 µM |
| Nc1nc2ccccc2c2c1nc(CCCc1nc3c(N)nc4ccccc4c3n1Cc1ccccc1)n2Cc1ccccc1 | cytokine and chemokine release, antagonist | 12 h, together with: CL075 10 µg/mL | IC50 | 0.05 to 0.3 µM |

A few entries again:
| SMILES | assay | setting | measurement | result |
| --- | --- | --- | --- | --- |
| O=C(N=P12CN3CN(CN(C3)C1)C2)c1ccccc1Br | cytotoxicity, MTT | 24 h, 1% DMSO | IC50 | > 500 µM |
